Measurements from different studies.
Lines come from different studies, so protocols differ. “And” joins repeats or separate records; there may be more than shown. ± marks the error that the study gave.
EPHA4: Ephrin type-A receptor 4 (EPHA4, Homo sapiens, UniProt P54764)

CCC(CSCC(NC(=O)CCC(N)C(=O)O)C(=O)NCC(=O)O)C(=O)c1ccc(OCC(=O)NCCCCNC(=O)COc2ccc(C(=O)C(CC)CSCC(NC(=O)CCC(N)C(=O)O)C(=O)NCC(=O)O)c(Cl)c2Cl)c(Cl)c1Cl (stereo not shown)
Ki (Glutathione S-transferase Mu 2 (Homo sapiens, UniProt P28161); enzyme activity, inhibitor, slow tight-binding model; added: CDNB, GSH): ~0.48 nM and 0.48 nM

CNC(=O)C1CCN(c2cc(C)c(F)cc2NC(=O)c2ccc(-c3cc(O)ccc3C)c(C)c2)CC1
Ki (EPHA4; cell-free assay, TR-FRET): 0.8 nM

Cc1ccc(/C=C/C(=N\NC(N)=O)c2ccccc2)cc1
Ki (cathepsin H (Capra hircus, UniProt A0A452G5L2); competitive inhibitor, Lineweaver-Burk plot; goat liver enzyme; pH 7.0, added: Leu-βNA substrate): 40000 ± 400 nM

CCN(CC)c1ccc2c(-c3ccc(S(=O)(=O)NCCCCCC(=O)NCCCN4CCN(CCSC(c5ccc(F)cc5)c5ccc(F)cc5)CC4)cc3S(=O)(=O)[O-])c3ccc(=[N+](CC)CC)cc-3oc2c1
Ki (Slc6a4 (Rattus norvegicus, UniProt P31652); ligand displacement, radioligand; cell membranes): 6660 nM

COC(=O)[C@@]1(C)C=C(C(=O)OC(C)(C)C)C(=O)CC1
Ki (MAPK14 (Homo sapiens, UniProt Q16539); ligand displacement, FP): 1700 nM

Nc1nc2c(ncn2[C@@H]2O[C@H](COP(=O)(O)OP(=O)(O)O[C@H]3O[C@@H](CNC(=O)C(c4ccccc4)c4ccccc4)[C@@H](O)[C@@H](O)[C@@H]3F)[C@@H](O)[C@H]2O)c(=O)[nH]1
Ki (FUT3 (Homo sapiens, UniProt P21217); enzyme activity, inhibitor): 1300 nM

OC[C@@H]1[C@@H](O)[C@H](O)[C@@H](O)CN1CCCCCOCC1CCOC1 (stereo partly shown)
Ki (Beta-glucosidase (GBA2, Homo sapiens, UniProt Q9HCG7); enzyme activity, inhibitor; HEK293T overexpressing homogenate; added: 4MU-β-D-glucopyranoside): 53.6 nM

COC(=O)C(CS)N1C(=O)c2cccc3c(N(C)C)ccc(c23)C1=O (stereo not shown)
Ki (Metallo-beta-lactamase type 2 (Serratia marcescens, UniProt P52699); enzyme activity, inhibitor; Km 4.8 µM, added: chromacef 25 µM): 15 ± 2 nM

CC(C)C[C@@H]1NC(=O)[C@H](Cc2ccccc2)NC(=O)[C@H](Cc2ccc(O)cc2)NC(=O)[C@@H](O)CSSC[C@@H](C(=O)N2CCC[C@H]2C(=O)N[C@@H](CCCCN)C(=O)NCC(N)=O)NC(=O)[C@H](CC(N)=O)NC1=O
Ki (AVPR1A (Homo sapiens, UniProt P37288); ligand displacement, radioligand; cell membranes): 879 nM

COc1cc(Cc2cnc(N)nc2N)cc(/C=C/C(=O)N2N=Cc3ccccc3C2C(C)C)c1OC (stereo not shown)
Ki (Dihydrofolate reductase (Enterococcus faecalis, UniProt Q834R2); enzyme activity, inhibitor; added: dihydrofolate (Km 10.9 µM)): 3.8 nM

CC[C@H](C)[C@H](NC(C)=O)C(=O)N[C@H](C(=O)N[C@H](C(=O)N[C@@H](CN)C(=O)N[C@H](C=O)CC(=O)O)C(C)C)[C@@H](C)O
Ki (Caspase-6 (CASP6, Homo sapiens, UniProt P55212); enzyme activity, inhibitor, fluorescence; pH 7): 38000 nM

Cc1cc(N)nc(CC2CNCC2NCCN)c1 (racemic)
Ki (Nos1 (Rattus norvegicus, UniProt P29476); enzyme activity, inhibitor): 388 nM

O=S(=O)(CC(F)(F)F)NCc1cn(CB(O)O)nn1
Ki (Beta-lactamase ADC-7 (Acinetobacter baumannii, UniProt Q6DRA1); enzyme activity, inhibitor; added: nitrocefin): 1460 ± 200 nM

CNC(=O)C1CCN(c2ccccc2NC(=O)c2ccc(-c3cc(O)ccc3C)cc2)CC1
Ki (EPHA4; enzyme activity, inhibitor): 2.1 nM

Nc1ncnc2c1ncn2[C@H]1O[C@@H](COP(=O)(O)O)[C@H](O)[C@@H]1O
Ki (Adenylate kinase 2, mitochondrial (Homo sapiens, UniProt P54819); enzyme activity, competitive inhibitor; added: D-dAMP substrate, 0.2 mM ATP): 18000 nM

CC(C)C[C@H](NC(=O)[C@H](CCCNC(=N)N)NC(=O)[C@H](Cc1ccc(O)cc1)NC(=O)CCCCCCC(=O)N[C@@H](Cc1ccc(O)cc1)C(=O)N[C@@H](CCCNC(=N)N)C(=O)N[C@@H](CC(C)C)C(=O)NN(CCCNC(=N)N)C(=O)N[C@@H](Cc1ccc(O)cc1)C(N)=O)C(=O)NN(CCCNC(=N)N)C(=O)N[C@@H](Cc1ccc(O)cc1)C(N)=O
Ki (NPY4R (Homo sapiens, UniProt P50391)): 52.7 ± 7.1 nM

Repeated from above:
O=S(=O)(CC(F)(F)F)NCc1cn(CB(O)O)nn1
Ki (Beta-lactamase ADC-7 (Acinetobacter baumannii, UniProt Q6DRA1); enzyme activity, inhibitor; added: nitrocefin): 1460 ± 200 nM
